Results of several laboratories.
Compare with care: the assays were run in different laboratories. Values joined by “and” are separate records of one study, mostly repeats; a detail may differ. ± marks the error that the study gave. Converted amounts (≈) assume the structure as drawn.

Compound = COC1=CC(c2ccc[nH]2)=N/C1=C\c1[nH]c(Cc2ccccc2)cc1Cc1ccccc1.Cl; organism = Plasmodium yoelii; test = parasitaemia; test system = mouse; setting = 4-day treatment, parasitaemia day 5; quantity = ED90; value = 7.81 mg/kg/day
Compound = COC1/C=C/OC2(C)Oc3c(C)c(O)c4c(O)c(c5c(nc6cc(C)ccn65)c4c3C2=O)NC(=O)/C(C)=C\C=C\C(C)C(O)C(C)C(O)C(C)C(OC(C)=O)C1C (centres unmarked); organism = Tetrahymena pyriformis and Klebsiella pneumoniae; test = virulence in co-culture; quantity = IC50; value = 0.39 µM
Compound = Cc1nc(C)c(-c2ccc(Oc3ccc(OC(F)(F)F)cc3)cc2)c(OC(=O)N(CCNC(C)C)C(C)C)c1Br; organism = Plasmodium yoelii; test system = 17XL; setting = 384-well; quantity = IC50; value = 1.4 ± 0.111 µM
Compound = C=CC1(C)CC(OC(=O)CSc2nc3ccccc3s2)C2(C)C(C)CCC3(CCC(=O)C32)C(C)C1O (centres unmarked); organism = Tetrahymena pyriformis and Klebsiella pneumoniae; test = virulence in co-culture; quantity = IC50; value = 15.8 µM
Compound = CN(C)[C@@H]1C(O)=C(C(N)=O)C(=O)[C@@]2(O)C(O)=C3C(=O)c4c(O)cccc4[C@@](C)(O)[C@H]3C[C@@H]12; organism = Acinetobacter baumannii; test system = 19606, biofilm; setting = 50 µg/mL, with: HNP1 8 µM; quantity = survival; value = 84.5% and 87.4% and 68.5% and 78.3% and 73%
Compound = COc1ccc(OC)c(C=CC(=O)NC2CCC(CN3CCC(c4c[nH]c5ccccc45)CC3)CC2)c1 (centres unmarked); organism = Plasmodium yoelii; test system = 17XL; setting = 384-well; quantity = IC50; value = > 20 µM
Compound = Cn1c(=O)ccc2ccc(F)c(CCNC[C@H]3CN(c4cnc5c(n4)NC(=O)CO5)C(=O)O3)c21; organism = Mycoplasma spp.; quantity = MIC50; value = < 0.015 µg/mL
Compound = Cc1cc2cc(O)cc(O)c2c(=O)o1; organism = Tetrahymena pyriformis and Klebsiella pneumoniae; test = virulence in co-culture; quantity = IC50; value = 9.63 µM
Compound = CO[C@H]1/C=C/O[C@@]2(C)Oc3c(C)c(O)c4c(O)c(c(/C=N/N5CCN(C)CC5)c(O)c4c3C2=O)NC(=O)/C(C)=C\C=C\[C@H](C)[C@H](O)[C@@H](C)[C@@H](O)[C@@H](C)[C@H](OC(C)=O)[C@@H]1C; organism = Mycolicibacterium aurum; test = REMA; test system = ATCC 23366; quantity = MIC90; value = 1.25 µg/mL (≈ 1.52 µM)
Compound = CC[C@H](C)[C@H](NC(=O)[C@H](Cc1ccccc1)NC(=O)[C@@H](NC(=O)[C@H](CO)NC(=O)[C@@H](N)CCCNC(=N)N)[C@@H](C)CC)C(=O)N[C@@H](CCCCN)C(=O)N[C@@H](Cc1ccc(O)cc1)C(=O)N[C@@H](CCCCN)C(=O)N[C@@H](CO)C(=O)N[C@@H](CCCCN)C(=O)N1CCC[C@H]1C(=O)N[C@@H](Cc1ccccc1)C(=O)N[C@@H](CS)C(=O)N[C@@H](CCC(=O)O)C(=O)N[C@@H](CCCCN)C(=O)N[C@@H](CC(C)C)C(=O)N[C@@H](CC(C)C)C(=O)N[C@@H](CO)C(=O)N[C@@H](Cc1c[nH]c2ccccc12)C(=O)N[C@H](C(=O)N[C@@H](CCCCN)C(=O)N[C@@H](CO)C(=O)O)C(C)C; organism = Staphylococcus haemolyticus; quantity = MBC; value = 8 µg/mL (≈ 2.98 µM)
Compound = COC1=CC(c2ccc[nH]2)=N/C1=C\c1cc(Cc2ccc(Cl)cc2)c(C)[nH]1.Cl; organism = Plasmodium yoelii; test system = CF1 mouse; setting = oral, 80 mg/kg single dose, day 5; quantity = parasitaemia reduction; value = 100%
Compound = Nc1ncnc2c1ncn2[C@@H]1O[C@@H]2COP(=O)(O)O[C@H]3[C@@H](O)[C@H](n4cnc5c(=O)[nH]cnc54)O[C@@H]3COP(=O)(O)O[C@H]2[C@H]1O; organism = Zika virus; test = upregulated Reactome pathway, RNA sequencing, item: Peptide ligand-binding receptors (R-HSA-375276); test system = HFF-1; scale = reference: ZIKV-infected untreated; quantity = fold enrichment; value = 5.06
Compound = COC1=CC(c2ccc[nH]2)=N/C1=C\c1[nH]c(-c2ccc(Cl)cc2)cc1-c1ccc(Cl)cc1; organism = Plasmodium yoelii; test system = CF1 mice; setting = oral, 10 mg/kg daily for 4 days, day 5; scale = reference: vehicle; quantity = parasitaemia reduction; value = 0%
Compound = COc1cccc(C(=O)NN(C(=O)c2cc(C)cc(C)c2)C(C)(C)C)c1C; organism = Anopheles gambiae; test system = G3, lab susceptible; setting = tarsal contact, 367 mg/m^2, with: RME 100 mg/m^2; scale = reference: control; quantity = egg number; value = decreased
Compound = O=[N+]([O-])c1ccc(C2=[N+]([O-])c3ccccc3N3CCN=C23)cc1; organism = Prevotella spp.; test = bacterial growth; quantity = MIC50; value = ≤ 0.06 µg/mL
Compound = CCCCCCCc1cc(=O)c2ccccc2[nH]1; organism = Plasmodium yoelii; test system = 17XL; setting = 384-well; quantity = IC50; value = 0.512 ± 0.038 µM
Compound = CC[C@H](C)[C@H](NC(=O)[C@H](C)NC(=O)[C@H](CCCCN)NC(=O)[C@H](CC(C)C)NC(=O)[C@H](C)NC(=O)[C@@H](NC(=O)[C@H](Cc1c[nH]cn1)NC(=O)[C@H](CC(C)C)NC(=O)[C@@H](NC(=O)[C@@H](NC(=O)[C@H](CCCCN)NC(=O)[C@H](C)NC(=O)[C@H](C)NC(=O)[C@H](CO)NC(=O)[C@H](CCCCN)NC(=O)[C@H](Cc1ccccc1)NC(=O)[C@@H](NC(=O)[C@H](CCCCN)NC(=O)[C@H](CC(C)C)NC(=O)[C@H](Cc1ccccc1)NC(=O)[C@H](CO)NC(=O)[C@H](CCCCN)NC(=O)[C@H](Cc1c[nH]c2ccccc12)NC(=O)[C@H](CCCCN)NC(C)=O)[C@@H](C)O)[C@@H](C)O)C(C)C)[C@@H](C)O)C(=O)N[C@@H](CO)C(=O)N[C@@H](CO)C(N)=O; organism = Klebsiella pneumoniae; setting = 40 strains; quantity = MIC50; value = 8 µg/mL (≈ 2.73 µM)
Compound = CCCCCC[C@H]1C(=O)O[C@H](C)[C@H](NC(=O)c2cccc(NC=O)c2O)C(=O)O[C@@H](C)[C@@H]1OC(=O)CC(C)C; organism = bovine herpesvirus 1; test = inhibitor; test system = MDBK cells, wild type; setting = concentration not given, 8 h; quantity = viral replication; value = inhibited
Compound = Nc1c([N+](=O)[O-])oc2ccc3ccccc3c12; organism = Mycolicibacterium aurum; test = REMA; test system = ATCC 23366; quantity = MIC90; value = > 32 µg/mL
Compound = CS(=O)(=O)CCCn1c(Cn2c(=O)n(CC(F)(F)F)c3ccncc32)cc2cc(Cl)ccc21; organism = respiratory syncytial virus; test = RT-qPCR; test system = hospitalized infants 1-24 months, nasal swab; setting = oral, 1-9 mg/kg daily, day 14, all doses combined; scale = reference: baseline; quantity = LS mean viral load change; value = -4.42 log10 copies/mL
Compound = CC[C@H](C)C[C@H](C)CCCCCCCCC(=O)N[C@H]1C[C@@H](O)[C@@H](NCCN)NC(=O)[C@@H]2[C@@H](O)CCN2C(=O)[C@H]([C@H](O)CCN)NC(=O)[C@H]([C@H](O)[C@@H](O)c2ccc(O)cc2)NC(=O)[C@@H]2C[C@@H](O)CN2C(=O)[C@H]([C@@H](C)O)NC1=O; organism = Pichia norvegensis; test = broth dilution; test system = ATCC 96139; setting = 48 h, 37 °C; quantity = MFC; value = 0.5 µg/mL (≈ 0.457 µM)
Compound = COc1cnc(OC)n2nc(NS(=O)(=O)c3c(OCC(F)F)cccc3C(F)(F)F)nc12; organism = Echinochloa crus-galli; test system = greenhouse; setting = postemergence, 150 g ai/ha, 21 days; quantity = fresh weight inhibition; value = 94.7 ± 1.21%
Compound = Fc1ccc(N2CCc3c(nnn3CC(c3ccccc3)c3ccccc3)C2)cc1; organism = human adenovirus 2; test = viral replication; test system = HEL; quantity = EC50; value = > 100 µM
Compound = Cc1[nH]c(/C=C2\N=C(c3ccc[nH]3)C=C2OC(C)C)cc1Cc1ccc(OC(F)(F)F)cc1.Cl; organism = Plasmodium yoelii; test system = CF1 mouse; setting = oral, 80 mg/kg single dose, day 5; quantity = parasitaemia reduction; value = 100%
Compound = CCOC(=O)C1(Cc2ccccc2)CN(c2ccccc2)Cc2nnn(Cc3ccc(OC)cc3)c21 (centres unmarked); organism = human adenovirus 2; test = viral replication; test system = HEL; quantity = EC50; value = > 100 µM
Compound = Cc1ncc([N+](=O)[O-])n1CCO; organism = Parabacteroides distasonis and Bacteroides spp.; test = bacterial growth; quantity = MIC50; value = 1 µg/mL (≈ 5.84 µM)
Compound = Cc1nnc(-c2ccccc2)nc1O; organism = Tetrahymena pyriformis and Klebsiella pneumoniae; test = virulence in co-culture; quantity = IC50; value = 4.49 µM
Compound = CN[C@H](CC(C)C)C(=O)N[C@H]1C(=O)N[C@@H](CC(N)=O)C(=O)N[C@H]2C(=O)N[C@H]3C(=O)N[C@H](C(=O)N[C@H](C(=O)O)c4cc(O)cc(O)c4-c4cc3ccc4O)[C@H](O)c3ccc(c(Cl)c3)Oc3cc2cc(c3O[C@@H]2O[C@H](CO)[C@@H](O)[C@H](O)[C@H]2O[C@H]2C[C@](C)(N)[C@H](O)[C@H](C)O2)Oc2ccc(cc2Cl)[C@H]1O; organism = Staphylococcus aureus; test system = CAAS-2019-CAAS-2019-17 clinical blaZ-resistant isolate, 25% plasma; quantity = MBC; value = 8 µg/mL (≈ 5.52 µM)
Compound = CCCN/C(=N/C)c1ccc(NC(=O)c2ccc(C(=O)Nc3ccc(/C(=N\C)NCCC)cc3)cc2)cc1; organism = Tetrahymena pyriformis and Klebsiella pneumoniae; test = virulence in co-culture; quantity = IC50; value = 13.5 µM
Compound = CC1NC(=O)C(C(=O)NC(C(=O)NC2C(=O)N3C2SC(C)(C)C3C(=O)O)c2ccccc2)=C1O (centres unmarked); organism = Escherichia coli; test = broth microdilution; test system = isolate IU 356 A, KPC-3, VIM-1, TEM; setting = with: clavulanic acid 6 µg/mL; quantity = MIC; value = > 200 µg/mL
Compound = CCCCc1c([N+](=O)[O-])oc2ccc3ccccc3c12; organism = Mycolicibacterium aurum; test = REMA; test system = ATCC 23366; quantity = MIC90; value = 2 µg/mL (≈ 7.43 µM)
Compound = C[C@H]1CN(c2n[nH]c3nc(N[C@H]4CC[C@H](NS(=O)(=O)CCC(F)(F)F)CC4)ncc23)CCO1; organism = Leishmania donovani; test = cell growth; test system = promastigotes, LdBOB CYC9 overexpressing; quantity = EC50; value = 0.0082 ± 8e-05 µM
Compound = COCC(=O)N1CCC[C@H](C(=O)NCc2nc(-c3ccc(C#N)cc3)cs2)C1; organism = Plasmodium falciparum; test system = Dd2 β5 S27F resistant; quantity = EC50; value = 45 ± 8.5 µM
Compound = CN1CCN=C1c1ccc(NC(=O)c2ccc(C(=O)Nc3ccc(C4=NCCN4C)cc3)cc2)cc1; organism = Tetrahymena pyriformis and Klebsiella pneumoniae; test = virulence in co-culture; quantity = IC50; value = 1.16 µM
Compound = CCc1c([N+](=O)[O-])oc2ccc3ccccc3c12; organism = Klebsiella aerogenes; test = REMA; quantity = MIC90; value = 2 µg/mL (≈ 8.29 µM)
